Measured values gathered from unrelated publications.
Every numbered part comes from another study and shows a few of its results, in no order. Changes are numbered by the printed parent chain.

Series 1 — target: CCNA1, cyclin fold, Cln2 fusion (human); method: yeast growth competition, sequencing; medium: yeast; notes: weak parent motif; reference: not given; reading: higher = stronger binding
Starting sequence: RBL1 docking peptide (human); GSAKRRLFGEDPP
| Change | normalised enrichment score |
| --- | --- |
| R6Q | 0.162 |
| G9Q | 0.765 |
| D11V | 0.181 |
| F8H | 0.335 |
| L7D | 0.161 |
| R5L | 0.603 |
| L7A | 0.23 |
| E10I | 0.424 |
| P12G | 0.376 |
| R5C | 0.00599 |
| K4N | 0.216 |
| S2V | 0.545 |
| A3E | 0.306 |

Series 2 — method: protein-binding microarray; molecule type: hairpin DNA; medium: in vitro; tested at: not given; reference: not given; reading: higher = stronger binding
Target: Microphthalmia-associated transcription factor, full length (MITF, Homo sapiens, UniProt O75030-10, residues 1-413)
Notes: whole hairpin DNA, median over replicate spots
| Oligonucleotide | median fluorescence [a.u.] |
| --- | --- |
| GAGGCCTAGGACGTGCTGCCTCCTGGCAGCACGTCCTAGGCCTCACACTC | 6310 |
| CACTTCGCACGTGATTTTGGTCCTCCAAAATCACGTGCGAAGTGACACTC (5mC at 6 38) | 23300 |
| CACTTAGGACGTGATTTTGGTCCTCCAAAATCACGTCCTAAGTGACACTC | 6300 |
| GAGGCCTAGCACCTGCTGCCTCCTGGCAGCAGGTGCTAGGCCTCACACTC | 8060 |
| CACTTATCACGTGATTTTGGTCCTCCAAAATCACGTGATAAGTGACACTC | 29600 |
| CACTTAGCACGCGATTTTGGTCCTCCAAAATCGCGTGCTAAGTGACACTC (5mC at 32) | 6170 |
| GAGGCCTAGCACGTTCTGCCTCCTGGCAGAACGTGCTAGGCCTCACACTC | 6030 |
| GAGGCCTAGCCGGTGCTGCCTCCTGGCAGCACCGGCTAGGCCTCACACTC (5mC at 11) | 5880 |
| GAGGCCTAGCACGTGCTGCCTCCTGGCAGCACGTGCTAGGCCTCACACTC | 22600 |
| GAGGCCTAGCACGTCGTGCCTCCTGGCACGACGTGCTAGGCCTCACACTC | 6520 |
| GAGGCCTGGCACGTGCTGCCTCCTGGCAGCACGTGCCAGGCCTCACACTC (5mC at 37) | 22200 |
| GAGGCCTACGACGTGCTGCCTCCTGGCAGCACGTCGTAGGCCTCACACTC (5mC at 9 35) | 6230 |
| GAGGCCTACGACGTGCTGCCTCCTGGCAGCACGTCGTAGGCCTCACACTC | 7070 |
| CACTTAGCACCGGATTTTGGTCCTCCAAAATCCGGTGCTAAGTGACACTC (5mC at 33) | 5140 |
| GAGGCCCAGCACGTGCTGCCTCCTGGCAGCACGTGCTGGGCCTCACACTC (5mC at 7) | 20500 |
| CACTTCGCACGTGATTTTGGTCCTCCAAAATCACGTGCGAAGTGACACTC (5mC at 38) | 25400 |
| CACTCGGCACGTGATTTTGGTCCTCCAAAATCACGTGCCGAGTGACACTC (5mC at 5) | 26200 |
| GAGGCCTAGCAGGTGCTGCCTCCTGGCAGCACCTGCTAGGCCTCACACTC | 7050 |
| GAGGCCTAGCACGTGCTGCCTCCTGGCAGCACGTGCTAGGCCTCACACTC (5mC at 12 32) | 6740 |
| CACTTAGCCCGTGATTTTGGTCCTCCAAAATCACGGGCTAAGTGACACTC | 10100 |
| GAGGCCTAGCACCGGCTGCCTCCTGGCAGCCGGTGCTAGGCCTCACACTC (5mC at 13 31) | 5380 |

Series 3 — method: protein binding microarray; molecule type: double-stranded DNA, one strand shown; medium: in vitro; tested at: not given; reference: not given; reading: higher = stronger binding
Target: Histone acetyltransferase KAT6A, both winged helices, GST fusion (KAT6A, Homo sapiens, UniProt Q92794, residues 1-181)
Notes: 8-mer, flanks averaged, mean of 2 arrays, mostly near background
Construct (chain): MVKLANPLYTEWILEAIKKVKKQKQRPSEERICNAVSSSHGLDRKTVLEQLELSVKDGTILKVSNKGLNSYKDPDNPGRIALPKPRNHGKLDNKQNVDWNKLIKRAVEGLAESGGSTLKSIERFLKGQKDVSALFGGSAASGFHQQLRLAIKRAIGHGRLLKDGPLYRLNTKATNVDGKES
| Oligonucleotide | E-score |
| --- | --- |
| CTTGACTC | -0.0868 |
| CCCGTAAG | 0.118 |
| ATGGCCTA | 0.0427 |
| CTATGGAC | -0.00661 |
| CGCTCGCC | 0.181 |
| AGCTGGCA | -0.197 |
| AGTCCGAA | 0.0699 |
| GAGATTCC | 0.0182 |
| ACAGCAGA | -0.0491 |
| ACAATTTG | -0.0354 |
| ACCAACCG | 0.0502 |
| GAGCCATA | -0.111 |
| TCTAAGCA | -0.0372 |
| TCCAACCA | -0.122 |
| ATGCTAAA | -0.154 |
| ACGGCCAG | 0.112 |
| ACTTGCCC | -0.196 |
| ACGCAACA | 0.0638 |
| CCCACCCG | 0.0747 |
| TAAGCTTA | -0.0775 |
| CGCATCAA | 0.18 |
| CATCCATA | -0.132 |

Single results of other studies
| Substance | target | test | system | setting | scale | endpoint | result |
| --- | --- | --- | --- | --- | --- | --- | --- |
| PhoQ, residues 284 288 289 292 302 303 AQGLTV | PhoP, residues 12 14 15 18 19 AYFRS (Escherichia coli, UniProt P23836) | Sort-seq, item: YFP reporter | E. coli | PhoQ-PhoP variant library, with: 10 µM Mg2+ | reference: high Mg2+ state, higher = stronger signaling | fold induction | 7.92 |

Repeated from above (series 2):
| Oligonucleotide | median fluorescence [a.u.] |
| --- | --- |
| GAGGCCTAGCAGGTGCTGCCTCCTGGCAGCACCTGCTAGGCCTCACACTC | 7050 |
| GAGGCCTACGACGTGCTGCCTCCTGGCAGCACGTCGTAGGCCTCACACTC | 7070 |
| GAGGCCTAGCACGTGCTGCCTCCTGGCAGCACGTGCTAGGCCTCACACTC (5mC at 12 32) | 6740 |
| GAGGCCTAGCACGTTCTGCCTCCTGGCAGAACGTGCTAGGCCTCACACTC | 6030 |
| GAGGCCTAGCACGTCGTGCCTCCTGGCACGACGTGCTAGGCCTCACACTC | 6520 |
| GAGGCCTAGCCGGTGCTGCCTCCTGGCAGCACCGGCTAGGCCTCACACTC (5mC at 11) | 5880 |
| CACTTCGCACGTGATTTTGGTCCTCCAAAATCACGTGCGAAGTGACACTC (5mC at 38) | 25400 |
| CACTTAGCACCGGATTTTGGTCCTCCAAAATCCGGTGCTAAGTGACACTC (5mC at 33) | 5140 |
